Measured values from different studies.
Every numbered part comes from another study and shows a few of its results, in no order.

Set 1
Target: RNA binding protein fox-1 homolog 2, RRM domain, GST-SBP tag (RBFOX2, Homo sapiens, UniProt O43251-10, residues 100-194)
Method: RNA Bind-n-Seq
Molecule type: RNA
Matrix: in vitro
Concentration: 365 nM
Notes: natural RNA segment, single round, ends assumed
Reference: no-protein control
Direction: higher = stronger binding
Construct (chain): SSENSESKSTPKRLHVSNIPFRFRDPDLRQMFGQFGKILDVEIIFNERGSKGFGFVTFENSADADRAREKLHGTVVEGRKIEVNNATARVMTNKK
Under “RBNS enrichment (R)”, `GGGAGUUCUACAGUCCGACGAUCUCUCCUAAUAUGCUGUUUCCAUUAUGACACAGCAGCUCCUUUGUAAGUACCAGGUCAUGUCCAUCCCUUGGUACAUAUAUGCAUUUGCUUUUAAACCAUUUCUUUUGUUUUGGAAUUCUCGGGUGCCAA` is recorded as 1.82.
`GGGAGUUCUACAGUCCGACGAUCAAAACUCACCAUGAAAUGAAAGAAUACUCAGGCUUUGCAGGAGUUAGCCGACCACGAGGAACCUUGUUUCGAAUUAGAGGCAGAGGAAGAGCCAGAGGAGUUUUUGCUGGUGGAAUUCUCGGGUGCCAA` — result for “RBNS enrichment (R)”: 0.446.
`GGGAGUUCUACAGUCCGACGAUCGCCCAGGUGGCCUGUGUGAGCGCCACUAGGCACCAGAAGGUGGCGCUCACGCUCUCGUCCUUAGGGAGGAGCUGACUUAGCAGCCCCUCAGCCCAACCCCCUGCUUCCUGUGGAAUUCUCGGGUGCCAA` — result for “RBNS enrichment (R)”: 0.276.
Under “RBNS enrichment (R)”, `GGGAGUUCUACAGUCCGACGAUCUUCUGAUAACGCAGAGAUUUUUUGUUUUUUUUUGGUAGCUCAGUAGAAGUGCGUCCUGUUUUCGCCUUACUUUACUCAGAGCUAGUUAGUGCUUCCUUAGUUUCCUAGCAUGGAAUUCUCGGGUGCCAA` is recorded as 2.74.
`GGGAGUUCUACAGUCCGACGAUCUGGCCACAGUGUUGGCUGGACUCUGACUCAGUGGCCCAGCCUGCAGCUGGAAGGACACAGGUUGCCGGAGUCCCUGACACAGCUCCAGCAUAUCUGUGACCAUCUGCUCCUGGAAUUCUCGGGUGCCAA` — result for “RBNS enrichment (R)”: 0.249.
Under “RBNS enrichment (R)”, `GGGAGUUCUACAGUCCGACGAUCCUAGCUUUGACAUCAUCUUGGGGGUUAGGCCAGAGGCUGGGAAGACUGGGUGGACUUUCUCAAUUGCUCUGCCAGGAGGGAACAAGCCCAGAGGCUGAAGCUUCCCAGUAUGGAAUUCUCGGGUGCCAA` is recorded as 0.567.
`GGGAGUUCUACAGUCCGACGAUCAGCCUUAGUUCUCCUGGAAGCUGCCAACUGCUUACGGGAGUGGGUAGAUUGGGCGUCUGAGACCCAGAACAUCCUAAAUUUGCAAUGGGUAACAGCUGAAACAAACGGAAUGGAAUUCUCGGGUGCCAA`: “RBNS enrichment (R)” 0.405.
For `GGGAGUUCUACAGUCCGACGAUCUGUAAGUAGGUACACUUGUGACGUCACUGACCUAGCGUACCUUUCCUUUUCAUAUCUACACUGACCUUAACUUAUAAAAAAAACAGAAAAGAAAAGCAAGUUUUAUAUAUUGGAAUUCUCGGGUGCCAA`, “RBNS enrichment (R)” read 0.617.

Set 2
Target: RING finger protein unkempt homolog, zinc fingers 1-6, GST-SBP tag (UNK, Homo sapiens, UniProt Q9C0B0, residues 30-357)
Method: RNA Bind-n-Seq
Molecule type: RNA
Matrix: in vitro
Concentration: not given
Notes: RNA with constant flanks, ends assumed
Reference: input RNA pool
Direction: higher = stronger binding
Residues (chain): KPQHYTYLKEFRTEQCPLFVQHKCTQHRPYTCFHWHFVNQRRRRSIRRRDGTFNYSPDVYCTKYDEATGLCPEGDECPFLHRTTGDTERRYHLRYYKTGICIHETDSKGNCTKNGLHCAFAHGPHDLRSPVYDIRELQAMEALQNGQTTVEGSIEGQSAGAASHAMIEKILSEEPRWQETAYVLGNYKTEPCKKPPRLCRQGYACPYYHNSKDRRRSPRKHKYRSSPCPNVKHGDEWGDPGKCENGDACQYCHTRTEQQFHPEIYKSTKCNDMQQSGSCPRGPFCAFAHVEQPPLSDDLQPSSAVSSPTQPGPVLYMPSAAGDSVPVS
For `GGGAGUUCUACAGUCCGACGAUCCCAGAUAACCCGGGUUCUAUUCACAGGGCCCAGUUCCAAGGGCACUGCACACAGUGAUGCACCGAUGUAUGCAGGCAAAACACCCAUUCACAUAAAAUAAAAUGAUCUUUAAAAAAUACUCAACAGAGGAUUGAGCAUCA`, the bound/input enrichment was 0.301 ratio.
`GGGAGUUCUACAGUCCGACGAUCCCAGAAUGAUUCUGGGCAUAUACUAAGAAGAGCAGGUAUGGAAAGAUCUAUUGUCAGGGAAUCUCCGAAUUCCCUACACGAGUGGGAGAAAGAUGUCCAAAUUCCUUACGCAGUGGUAUUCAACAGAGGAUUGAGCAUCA` has a bound/input enrichment of 0.241 ratio.
With `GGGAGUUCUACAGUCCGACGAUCGGAACGUCAUUUGUCAUGGAUGUUCUACGCCCACAGAUUGUAACGUUCGAUGGACGGAAUUACCGAAAGAAUCCCAUCCAGGAGAAACAGUACCAACAUGAAGAAGACGAGGAUUUCUAUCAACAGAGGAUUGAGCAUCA` the bound/input enrichment was 0.159 ratio.
The bound/input enrichment of `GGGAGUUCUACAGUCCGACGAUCCCACUUCGAAGCGUCUUGGAGCAAUCCAAGUUAAAGAAAGAAGAUAUUUAUGCAGUGGAGACCGUUGGUGGUGCCACACGAAUCCCUGCAGUGAAAGAGAAGAUCAGCAAGUUUUUUGGUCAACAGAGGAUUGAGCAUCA` is reported as 0.155 ratio.
`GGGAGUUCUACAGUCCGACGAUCAAGCAAUGUGGGAAAACUUUCAAUUGGCCCAUAUCUUUACGAAAACAUAUGAGAACACAUACCCGAGAGAAACCCUAUGAAUGUAAGCAGUGUGGGAAAGCCUUCAGCUUGUCUGCUUGCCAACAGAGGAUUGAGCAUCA` gave a bound/input enrichment of 0.0938 ratio.
`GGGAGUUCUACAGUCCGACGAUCCGGUACCCAGACAUCCGCAUUGAAGGAGAGAAUUACCUCCCUCAACCAAUAUAUAGACACACCGCAUCUUUCCUGUCAGUCUUCAAACUAGUAUUAAUAGGCUUAAUAAUUGUUGGCAAGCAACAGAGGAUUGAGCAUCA` has a bound/input enrichment of 24.9 ratio.
The bound/input enrichment of `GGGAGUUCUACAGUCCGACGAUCGAAGAUGAAGCUAAUGUAGCCUGGAAGUAUUACAAAGUCCCAAAGAAAAAAGAUGCCGAAUUUUUACCACCUCAACUUCCAAAUGAUAAAUUCAAGGAUGAUCCAGUUGGACCUUUUGGACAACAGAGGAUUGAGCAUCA` is reported as 0.187 ratio.
With `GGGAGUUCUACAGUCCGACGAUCUUAAUUUUUUUAAUUUUUUUAUUUUUUAUUUUCUUUUUGGUUUGGGGAGGGAGAAAAGUUCUCCGCACAAAUGUUUUACAUAAUUUGUACCAAAAAAAAAAAAAAAGGAAAGGAAAGAAACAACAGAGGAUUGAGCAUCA` the bound/input enrichment was 1.32 ratio.

Set 3
Target: Histone acetyltransferase KAT6A, both winged helices, GST fusion (KAT6A, Homo sapiens, UniProt Q92794, residues 1-181)
Method: protein binding microarray
Molecule type: double-stranded DNA, one strand shown
Matrix: in vitro
Concentration: not given
Notes: 8-mer, flanks averaged, mean of 2 arrays, mostly near background
Reference: not given
Direction: higher = stronger binding
Construct (chain): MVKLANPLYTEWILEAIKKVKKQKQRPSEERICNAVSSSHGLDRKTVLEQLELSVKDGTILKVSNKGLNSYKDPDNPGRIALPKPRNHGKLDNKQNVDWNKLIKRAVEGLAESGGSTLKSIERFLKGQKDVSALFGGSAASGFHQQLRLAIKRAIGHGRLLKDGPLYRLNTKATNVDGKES
With `CGCGCTAA` the E-score was 0.339.
With `ATTCAACC` the E-score was -0.0668.
The E-score of `CCACCGGG` is reported as 0.109.
`GGTTGTTA` gave an E-score of -0.00106.
For `AGTTCACA`, the E-score was -0.0602.
`ACGAAGCA` has an E-score of -0.107.
`GTGTTTAA` has an E-score of -0.00248.
For `ATCGTTTA`, the E-score was 0.0451.
For `ATACTGCA`, the E-score was -0.0539.
With `AATCGGAC` the E-score was 0.00934.
The E-score of `AACATAAT` is reported as 0.0364.
For `AGTTTCCC`, the E-score was -0.0212.
With `TAGTCGCA` the E-score was 0.0713.
`TAGCCGCA` has an E-score of 0.19.
`CGTAACGA` has an E-score of 0.0136.
`CCCGGACG` gave an E-score of 0.105.
The E-score of `ACAGCTCC` is reported as -0.146.
With `AAACCAGA` the E-score was -0.222.
`CATGGCCC` has an E-score of -0.0719.
With `CCCGGCCC` the E-score was 0.0916.
With `CCAGCATA` the E-score was -0.193.
`ACTTCTTG` has an E-score of -0.101.
For `CCCCTATC`, the E-score was -0.235.
With `AGACTCCA` the E-score was -0.198.
With `CCTCGACC` the E-score was -0.159.

Set 4
Target: Centromere-binding protein 1, full length, N-terminal tag (CBF1, Saccharomyces cerevisiae, UniProt P17106, residues 1-351)
Chain of UniProt P17106 (whole entry, looked up): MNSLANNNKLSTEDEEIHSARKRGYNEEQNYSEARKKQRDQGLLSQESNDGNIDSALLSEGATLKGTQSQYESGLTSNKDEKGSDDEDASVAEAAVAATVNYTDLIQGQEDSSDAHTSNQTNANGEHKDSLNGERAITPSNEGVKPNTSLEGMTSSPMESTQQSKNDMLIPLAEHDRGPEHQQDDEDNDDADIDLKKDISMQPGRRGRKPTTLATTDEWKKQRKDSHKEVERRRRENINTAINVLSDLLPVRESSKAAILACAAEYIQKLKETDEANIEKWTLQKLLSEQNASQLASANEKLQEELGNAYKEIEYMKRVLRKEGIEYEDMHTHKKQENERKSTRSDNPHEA
Method: protein-binding microarray
Molecule type: double-stranded DNA, one strand shown
Matrix: in vitro
Concentration: 0.8 µM
Notes: whole 60-bp probe, no competitor
Direction: higher = stronger binding
With `CTACGGGTGATGCGTGACGCGTTTTTGGAAACGTTCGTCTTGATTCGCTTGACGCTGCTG` the fluorescence intensity was 1110 a.u.
`GAACTACACAGCTATCATATGAGGGGAGTGATCTAGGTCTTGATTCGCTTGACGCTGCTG` has a fluorescence intensity of 553 a.u.
With `CTACCGCTCATTAGTCACGTGGTCATCACGTGATTCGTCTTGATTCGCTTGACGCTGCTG` the fluorescence intensity was 37600 a.u.
With `GAACGAGATAATGAGCATGATGTATAAACAAACTAGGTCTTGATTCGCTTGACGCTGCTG` the fluorescence intensity was 602 a.u.
For `CTAATCCAGAATTCACTGATGATGAGCTTATGGTTCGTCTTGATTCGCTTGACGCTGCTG`, the fluorescence intensity was 505 a.u.
`GAAATTGAAGGGAAAAAGGTGACTGAAATATGATAGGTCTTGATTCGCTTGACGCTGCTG` gave a fluorescence intensity of 552 a.u.
The fluorescence intensity of `GAAACATCGAGCCACGTGACCATATATGAGAAATAGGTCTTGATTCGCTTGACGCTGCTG` is reported as 18800 a.u.
`CCTAACTACTATATACACACGCAATAGCTTCGTACAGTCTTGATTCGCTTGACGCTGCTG` has a fluorescence intensity of 521 a.u.
`CTAGTCAGAAAAAGAAACGTGCACCCGCCCGTCTTCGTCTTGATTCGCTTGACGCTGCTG` has a fluorescence intensity of 596 a.u.
`GAACTTGATGGTCTACACGTTGTTTCAAGTGCATAGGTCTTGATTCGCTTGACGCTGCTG` has a fluorescence intensity of 598 a.u.
`GAAGCTTAAAAGCCCCTGACGGCTCACCTTAAATAGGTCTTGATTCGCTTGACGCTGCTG` has a fluorescence intensity of 476 a.u.
`CTACCTTTCGACAGTCATCAGATAATTTTATCCTTCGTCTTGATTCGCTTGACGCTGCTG` has a fluorescence intensity of 553 a.u.
`TGTACGAAGCTATCACGTGGGAGTATAGTAGTTAGGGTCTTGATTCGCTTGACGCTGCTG` has a fluorescence intensity of 10200 a.u.
With `CTACGTTGCCCTAGTCACGCTGGTTACATAAATTTCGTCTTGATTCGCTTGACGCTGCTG` the fluorescence intensity was 823 a.u.
`CTACAAAAAATGAGTCACGCACGCACAATCACGTTCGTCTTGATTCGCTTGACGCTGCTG` gave a fluorescence intensity of 1110 a.u.
With `CTACGGTCGCCATATCATGAGATTACTTGAAGCTTCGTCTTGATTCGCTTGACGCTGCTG` the fluorescence intensity was 516 a.u.
With `CTAATCTTGACTAACAACGTGTACAACTCTTTTTTCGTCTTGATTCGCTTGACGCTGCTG` the fluorescence intensity was 590 a.u.
The fluorescence intensity of `CTAAACCATCATTTTTTCGTGACGTTTCATAGTTTCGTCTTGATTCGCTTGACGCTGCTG` is reported as 511 a.u.
For `CTAGTATTATATAGAAACGTGTTAGTAGGCTCTTTCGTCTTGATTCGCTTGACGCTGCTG`, the fluorescence intensity was 595 a.u.

Other studies, line by line
For `PhoQ, residues 284 288 289 292 302 303 NLSRDF`, the fold induction was 0.931 (PhoP, residues 12 14 15 18 19 DLLYY (Escherichia coli, UniProt P23836); Sort-seq, refers to: YFP reporter; E. coli; PhoQ-PhoP variant library, with: 10 µM Mg2+; reference: high Mg2+ state, higher = stronger signaling).

A few entries again (set 3):
For `AGTTTCCC`, the E-score was -0.0212.
With `TAGTCGCA` the E-score was 0.0713.
`TAGCCGCA` has an E-score of 0.19.
`CGTAACGA` has an E-score of 0.0136.
`CCCGGACG` gave an E-score of 0.105.
The E-score of `ACAGCTCC` is reported as -0.146.
With `AAACCAGA` the E-score was -0.222.
`CATGGCCC` has an E-score of -0.0719.
